Assay results collected from several papers.
Lines come from different studies, so protocols differ.

The MIC of `CCc1cc(Nc2cc(=O)n(CCCCO)c(=O)[nH]2)ccc1C` is reported as 4 µg/mL (Clostridioides difficile; agar dilution anaerobic; 3584; 48 h).
`CC(=O)NC[C@H]1CN(c2ccc(N3CCOCC3)c(F)c2)C(=O)O1` has an MIC of 5.93 µM (Levilactobacillus brevis; ATCC 14869).
With `O=C(O)CO/N=c1\cc2n(-c3ccc(Cl)cc3)c3ccccc3nc-2cc1Nc1ccc(Cl)cc1` the MIC was 0.23 µM (Neisseria meningitidis; bacterial growth; ATCC 13077; 24 h).
For `CCOC(=O)CON`, the MIC was 32 µg/mL (Nakaseomyces glabratus; CG2).
`N=C(N)c1ccc(OCCCCCOc2ccc(C(=N)N)cc2)cc1` has an MIC of 50 µg/mL (Escherichia coli; 552100; in combination, checkerboard, together with: rifampicin).
`C[C@H](NC(=O)CO/N=c1\cc2n(-c3ccc(Cl)cc3)c3ccccc3nc-2cc1Nc1ccc(Cl)cc1)C(=O)O` has an MIC of 7.5 µM (Neisseria meningitidis; bacterial growth; ATCC 13077; 24 h).
With `N=C(N)c1ccc(OCc2cc(COc3ccc(C(=N)N)cc3)cc(-c3ccccc3)c2)cc1` the MIC was 6.25 µg/mL (Escherichia coli; W3110; in combination, checkerboard, together with: rifampicin).
`Clc1ccc(Nc2cc3nc4ccccc4n(-c4ccc(Cl)cc4)c-3c/c2=N\OCc2ccccc2)cc1` gave an MIC of greater than 30 µM (Neisseria meningitidis; bacterial growth; ATCC 13077; 24 h).
The MIC of `Nc1[nH]c(=O)ncc1F` is reported as 8 µg/mL (Cryptococcus neoformans; EUCAST broth dilution; 72 h, 37 °C, 100% growth inhibition, alone).
With `C[C@H]1COc2c(N3CCN(C)CC3)c(F)cc3c(=O)c(C(=O)O)cn1c23` the MIC was no more than 0.03 µg/mL (Proteus vulgaris; agar dilution; ATCC 29905 susceptible).
`OC(Cn1cncn1)(Cn1cncn1)c1ccc(F)cc1F` gave an MIC of 25 µM (Cryptococcus neoformans; 108, RPMI 1640; 24 h, 35 °C).
`OC(Cn1cncn1)(Cn1cncn1)c1ccc(F)cc1F` has an MIC of 8 µg/mL (Nakaseomyces glabratus; CG2).
For `CNC(C)C1CCC(N)C(OC2C(N)CC(N)C(OC3OCC(C)(O)C(NC)C3O)C2O)O1` (stereo not drawn), the MIC was 32 µM (Pseudomonas aeruginosa; clinical isolate P.A301, RPMI with 10% FBS; 37 °C).
For `CC1(C)SC2C(NC(=O)C(NC(=O)C3=C(O)CN(c4ccccc4)C3=O)c3ccccc3)C(=O)N2C1C(=O)O` (stereo not drawn), the MIC was 25 µg/mL (Escherichia coli; broth microdilution; ATCC 25922 wild type; no clavulanic acid).
With `CCCCCCCCCC(=O)N[C@@H](Cc1c[nH]c2ccccc12)C(=O)N[C@H](CC(N)=O)C(=O)N[C@@H](CC(=O)O)C(=O)N[C@@H]1C(=O)NCC(=O)N[C@@H](CCCN)C(=O)N[C@@H](CC(=O)O)C(=O)N[C@H](C)C(=O)N[C@@H](CC(=O)O)C(=O)NCC(=O)N[C@H](CO)C(=O)N[C@@H]([C@H](C)CC(=O)O)C(=O)N[C@@H](CC(=O)c2ccccc2N)C(=O)O[C@@H]1C` the MIC was 1 µg/mL (Staphylococcus aureus; SH1000; together with: phosphatidylethanolamine, molar ratio 1).
`O=c1[nH]c(NCc2ccc(Cl)c(Cl)c2)nc2ncn(CCCCCN3CCOCC3)c12` has an MIC of 2 µg/mL (Clostridioides difficile; agar dilution anaerobic; 3581; 48 h).
For `Cc1c(CN(C)C(=O)/C=C/c2cnc3c(c2)CCC(=O)N3)oc2ccccc12`, the MIC was greater than 32 µg/mL (Escherichia coli; broth microdilution; AR-0048).
`CO[C@H]1/C=C/O[C@@]2(C)Oc3c(C)c(O)c4c(c3C2=O)C2=NC3(CCN(CCn5c([N+](=O)[O-])cnc5C)CC3)NC2=C(NC(=O)/C(C)=C\C=C\[C@H](C)[C@H](O)[C@@H](C)[C@@H](O)[C@@H](C)[C@H](OC(C)=O)[C@@H]1C)C4=O` gave an MIC of no more than 0.002 µg/mL (Clostridioides difficile; agar dilution; fluoroquinolone-resistant).
`CC(C)/N=c1\cc2n(-c3ccc(Cl)cc3)c3ccccc3nc-2cc1Nc1ccc(Cl)cc1` gave an MIC of 7.5 µM (Neisseria meningitidis; bacterial growth; ATCC 13077; 24 h).
`N=C(N)c1ccc(OCc2ccc(Br)cc2COc2ccc(C(=N)N)cc2)cc1` has an MIC of 100 µg/mL (Escherichia coli; mcr-1 polymyxin-resistant; 20 h, compound alone).
For `CC[C@H](C)CCCCC(=O)N[C@@H](CCN)C(=O)N[C@H](C(=O)N[C@@H](CCN)C(=O)N[C@H]1CCNC(=O)[C@H]([C@@H](C)O)NC(=O)[C@H](CCN)NC(=O)[C@H](CCN)NC(=O)[C@H](CC(C)C)NC(=O)[C@@H](CC(C)C)NC(=O)[C@H](CCN)NC1=O)[C@@H](C)O`, the MIC was 0.428 µM (Pseudomonas aeruginosa; broth microdilution; ATCC 25922, cation-adjusted Mueller-Hinton broth).
`CCOCCn1cnc2nc(NCc3ccc(Cl)c(Cl)c3)[nH]c(=O)c21` has an MIC of 2 µg/mL (Clostridioides difficile; agar dilution anaerobic; 3584; 48 h).
The EC50 of `CC[C@H]1CN2CCc3cc(OC)c(OC)cc3[C@@H]2C[C@@H]1C[C@H]1NCCc2cc(OC)c(OC)cc21` is reported as 0.03 µM (Toxoplasma gondii; parasite growth, luciferase reporter; HFF host cells, tachyzoites; 72 h).
`CC(=O)NC[C@H]1CN(c2ccc(N3CCOCC3)c(F)c2)C(=O)O1` has an MIC of 2 µM (Staphylococcus aureus; broth microdilution; vancomycin-resistant VRS10).
The MIC of `CC1(C)S[C@@H]2[C@H](NC(=O)[C@H](N)c3ccccc3)C(=O)N2[C@H]1C(=O)O` is reported as greater than 16 µg/mL (Salmonella enterica serovar Enteritidis; broth microdilution; clinical isolate RKI-No 205/14).
With `CCNCc1nc2c(N)nc3ccccc3c2n1CC(C)(C)O` the EC50 was 30 µM (Toxoplasma gondii; parasite growth; HFF, bradyzoite, glutamine-induced).
With `O/N=c1\cc2n(-c3ccc(Cl)cc3)c3ccccc3nc-2cc1Nc1ccc(Cl)cc1` the MIC was greater than 30 µM (Neisseria meningitidis; bacterial growth; ATCC 13077; 24 h).
For `O=c1[nH]c(NCc2ccc(Cl)c(Cl)c2)nc2ncn(CCN3CCOCC3)c12`, the MIC was 2 µg/mL (Clostridioides difficile; agar dilution anaerobic; 3581; 48 h).
The MIC of `CCN1CCN(C(=O)N[C@@H](C(=O)N[C@@H]2C(=O)N3[C@@H]2SC(C)(C)[C@@H]3C(=O)O)c2ccccc2)C(=O)C1=O` is reported as 12.5 µg/mL (Escherichia coli; broth microdilution; ATCC 25922 wild type; together with: clavulanic acid 6 µg/mL).
`N=C(N)c1ccc(OCc2cc(Br)cc(COc3ccc(C(=N)N)cc3)c2)cc1` has an MIC of 100 µg/mL (Escherichia coli; mcr-3 polymyxin-resistant; compound alone).
With `Cc1ncc([N+](=O)[O-])n1CCO` the MIC was 1 µg/mL (Clostridioides difficile; agar dilution anaerobic; 3581; 48 h).
`O=C(CO/N=c1\cc2n(-c3ccc(Cl)cc3)c3ccccc3nc-2cc1Nc1ccc(Cl)cc1)NCc1ccc(C(F)(F)F)cc1` has an MIC of greater than 30 µM (Neisseria meningitidis; bacterial growth; ATCC 13077; 24 h).
The MIC of `CC(C)C1NC(=O)C(C(=O)NC(C(=O)NC2C(=O)N3C2SC(C)(C)C3C(=O)O)c2ccccc2)=C1O` (stereo not drawn) is reported as 50 µg/mL (Escherichia coli; broth microdilution; BW25113 wild type; 18 h).

For quick reference, copied from above:
`OC(Cn1cncn1)(Cn1cncn1)c1ccc(F)cc1F` has an MIC of 8 µg/mL (Nakaseomyces glabratus; CG2).
For `CC1(C)SC2C(NC(=O)C(NC(=O)C3=C(O)CN(c4ccccc4)C3=O)c3ccccc3)C(=O)N2C1C(=O)O` (stereo not drawn), the MIC was 25 µg/mL (Escherichia coli; broth microdilution; ATCC 25922 wild type; no clavulanic acid).
